Published values pooled from the literature.
Every numbered part comes from another study and shows a few of its results, in no order. Values joined by “and” are separate records of one study, mostly repeats; a detail may differ.
Chain of UniProt P52333 (whole entry, looked up): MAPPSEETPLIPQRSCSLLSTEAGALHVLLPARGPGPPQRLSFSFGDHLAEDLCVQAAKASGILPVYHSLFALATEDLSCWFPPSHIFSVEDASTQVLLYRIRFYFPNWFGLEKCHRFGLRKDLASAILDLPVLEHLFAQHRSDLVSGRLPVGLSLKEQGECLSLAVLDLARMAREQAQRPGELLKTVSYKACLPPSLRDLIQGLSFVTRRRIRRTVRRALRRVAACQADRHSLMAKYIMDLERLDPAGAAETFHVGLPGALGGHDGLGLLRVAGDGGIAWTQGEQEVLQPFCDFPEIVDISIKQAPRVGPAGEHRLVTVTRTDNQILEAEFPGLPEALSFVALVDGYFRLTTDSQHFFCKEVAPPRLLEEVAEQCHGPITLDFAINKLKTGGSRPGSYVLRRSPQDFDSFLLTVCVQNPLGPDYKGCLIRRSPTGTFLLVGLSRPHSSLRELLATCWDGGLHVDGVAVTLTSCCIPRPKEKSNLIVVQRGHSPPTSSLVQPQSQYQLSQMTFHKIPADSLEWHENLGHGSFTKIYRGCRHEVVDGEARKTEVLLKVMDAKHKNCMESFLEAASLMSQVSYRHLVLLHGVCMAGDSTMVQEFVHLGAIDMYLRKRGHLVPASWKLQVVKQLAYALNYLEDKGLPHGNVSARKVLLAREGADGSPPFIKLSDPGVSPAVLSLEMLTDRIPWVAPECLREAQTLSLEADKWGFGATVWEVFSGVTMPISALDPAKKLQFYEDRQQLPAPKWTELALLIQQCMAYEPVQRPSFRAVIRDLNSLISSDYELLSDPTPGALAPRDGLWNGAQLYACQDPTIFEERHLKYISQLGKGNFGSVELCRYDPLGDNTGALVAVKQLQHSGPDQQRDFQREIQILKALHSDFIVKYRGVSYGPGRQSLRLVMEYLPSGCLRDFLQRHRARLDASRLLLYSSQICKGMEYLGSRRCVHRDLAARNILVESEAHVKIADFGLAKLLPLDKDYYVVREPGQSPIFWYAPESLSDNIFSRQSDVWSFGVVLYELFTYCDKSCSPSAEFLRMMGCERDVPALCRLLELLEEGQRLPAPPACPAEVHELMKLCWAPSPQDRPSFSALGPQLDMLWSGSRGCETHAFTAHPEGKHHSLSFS
Chain of UniProt P29376 (whole entry, looked up): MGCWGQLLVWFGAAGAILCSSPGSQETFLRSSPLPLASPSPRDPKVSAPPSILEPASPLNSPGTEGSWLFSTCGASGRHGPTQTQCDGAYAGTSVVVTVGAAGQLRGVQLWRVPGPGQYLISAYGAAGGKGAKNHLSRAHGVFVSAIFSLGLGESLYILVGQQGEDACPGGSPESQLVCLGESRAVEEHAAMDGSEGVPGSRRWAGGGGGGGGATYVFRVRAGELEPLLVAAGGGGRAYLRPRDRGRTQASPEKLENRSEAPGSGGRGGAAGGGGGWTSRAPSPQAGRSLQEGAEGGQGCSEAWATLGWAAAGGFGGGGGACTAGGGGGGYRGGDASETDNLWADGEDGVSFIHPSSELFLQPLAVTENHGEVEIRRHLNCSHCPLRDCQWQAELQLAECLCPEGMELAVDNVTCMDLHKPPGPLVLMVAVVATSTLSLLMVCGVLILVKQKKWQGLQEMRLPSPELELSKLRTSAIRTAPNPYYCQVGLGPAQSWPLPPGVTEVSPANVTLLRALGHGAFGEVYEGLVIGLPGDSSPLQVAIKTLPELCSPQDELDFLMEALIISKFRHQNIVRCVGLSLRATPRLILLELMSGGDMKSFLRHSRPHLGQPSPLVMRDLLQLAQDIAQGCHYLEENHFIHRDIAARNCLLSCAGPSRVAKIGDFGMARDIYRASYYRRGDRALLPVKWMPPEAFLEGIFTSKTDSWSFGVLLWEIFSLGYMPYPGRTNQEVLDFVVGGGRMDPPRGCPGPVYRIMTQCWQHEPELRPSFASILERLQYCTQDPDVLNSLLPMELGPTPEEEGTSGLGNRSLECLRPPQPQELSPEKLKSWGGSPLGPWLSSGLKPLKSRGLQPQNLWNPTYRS

Study 1 — sample: plasma
SMILES: O=C1CCC(N2Cc3c(ccc4c3OCC43CCN(Cc4ccccc4)CC3)C2=O)C(=O)N1 (stereo not drawn)
test system	conditions	plasma concentration
Sprague Dawley rat, male	oral, 3 mg/kg, 0.5 h	66.5 ng/mL and 53.2 ng/mL
male Sprague Dawley rats	intravenous, 1 mg/kg, 6 h	33.3 ng/mL
male Sprague Dawley rats	oral, 3 mg/kg, 6 h	107 ng/mL
ICR mouse, male	oral, 3 mg/kg, 0.5 h	501 ng/mL and 272 ng/mL
ICR mouse, male	intravenous, 1 mg/kg, 0.5 h	195 ng/mL and 177 ng/mL
Sprague Dawley rat, male	oral, 3 mg/kg, 4 h	246 ng/mL and 240 ng/mL
male Sprague Dawley rats	intravenous, 1 mg/kg, 0.5 h	263 ng/mL
male ICR mice	intravenous, 1 mg/kg, 2 h	60.2 ng/mL
male Sprague Dawley rats	intravenous, 1 mg/kg, 0.25 h	372 ng/mL

Study 2 — read-out: cell-free assay; method: competition with immobilised ligand; tested at: 1 µM
SMILES: Cn1cncc1[C@](O)(COc1ccc(C#N)cc1-c1ccc(OC(F)(F)F)cc1)c1ccc(C#N)cc1
target	remaining binding [%]
Mitogen-activated protein kinase kinase kinase 10 (MAP3K10, Homo sapiens, UniProt Q02779)	55
Dual specificity mitogen-activated protein kinase kinase 5 (MAP2K5, Homo sapiens, UniProt Q13163)	83
Serine/threonine-protein kinase PLK1 (PLK1, Homo sapiens, UniProt P53350)	77
Ribosomal protein S6 kinase beta-1 (RPS6KB1, Homo sapiens, UniProt P23443)	96
Ribosomal protein S6 kinase alpha-1, C-terminal kinase domain (RPS6KA1, Homo sapiens, UniProt Q15418)	100
Serine/threonine-protein kinase TAO2 (TAOK2, Homo sapiens, UniProt Q9UL54)	98
Serine/threonine-protein kinase/endoribonuclease IRE1 (ERN1, Homo sapiens, UniProt O75460)	100
Discoidin domain-containing receptor 2 (DDR2, Homo sapiens, UniProt Q16832)	100
Homeodomain-interacting protein kinase 3 (HIPK3, Homo sapiens, UniProt Q9H422)	100
Serine/threonine-protein kinase WNK3 (WNK3, Homo sapiens, UniProt Q9BYP7)	100
Wee1-like protein kinase (WEE1, Homo sapiens, UniProt P30291)	100
Tyrosine-protein kinase JAK3, JH1 (JAK3, Homo sapiens, UniProt P52333)	72
Tyrosine-protein kinase ABL1, phosphorylated (ABL1, Homo sapiens, UniProt P00519, F317L)	100
Activin receptor type-2A (ACVR2A, Homo sapiens, UniProt P27037)	100
Tyrosine-protein kinase CSK (CSK, Homo sapiens, UniProt P41240)	82
Phosphatidylinositol 4,5-bisphosphate 3-kinase catalytic subunit alpha isoform (PIK3CA, Homo sapiens, UniProt P42336, C420R)	100
Serine/threonine-protein kinase TNNI3K (TNNI3K, Homo sapiens, UniProt Q59H18)	82
Serine/threonine-protein kinase N2 (PKN2, Homo sapiens, UniProt Q16513)	100

Study 3 — read-out: enzyme activity; mode: inhibitor; tested at: 77 µM; relative to: untreated
Target: DNA polymerase theta, ATPase domain (POLQ, Homo sapiens, UniProt O75417)
Chain of UniProt O75417 (whole entry, unmodified, looked up): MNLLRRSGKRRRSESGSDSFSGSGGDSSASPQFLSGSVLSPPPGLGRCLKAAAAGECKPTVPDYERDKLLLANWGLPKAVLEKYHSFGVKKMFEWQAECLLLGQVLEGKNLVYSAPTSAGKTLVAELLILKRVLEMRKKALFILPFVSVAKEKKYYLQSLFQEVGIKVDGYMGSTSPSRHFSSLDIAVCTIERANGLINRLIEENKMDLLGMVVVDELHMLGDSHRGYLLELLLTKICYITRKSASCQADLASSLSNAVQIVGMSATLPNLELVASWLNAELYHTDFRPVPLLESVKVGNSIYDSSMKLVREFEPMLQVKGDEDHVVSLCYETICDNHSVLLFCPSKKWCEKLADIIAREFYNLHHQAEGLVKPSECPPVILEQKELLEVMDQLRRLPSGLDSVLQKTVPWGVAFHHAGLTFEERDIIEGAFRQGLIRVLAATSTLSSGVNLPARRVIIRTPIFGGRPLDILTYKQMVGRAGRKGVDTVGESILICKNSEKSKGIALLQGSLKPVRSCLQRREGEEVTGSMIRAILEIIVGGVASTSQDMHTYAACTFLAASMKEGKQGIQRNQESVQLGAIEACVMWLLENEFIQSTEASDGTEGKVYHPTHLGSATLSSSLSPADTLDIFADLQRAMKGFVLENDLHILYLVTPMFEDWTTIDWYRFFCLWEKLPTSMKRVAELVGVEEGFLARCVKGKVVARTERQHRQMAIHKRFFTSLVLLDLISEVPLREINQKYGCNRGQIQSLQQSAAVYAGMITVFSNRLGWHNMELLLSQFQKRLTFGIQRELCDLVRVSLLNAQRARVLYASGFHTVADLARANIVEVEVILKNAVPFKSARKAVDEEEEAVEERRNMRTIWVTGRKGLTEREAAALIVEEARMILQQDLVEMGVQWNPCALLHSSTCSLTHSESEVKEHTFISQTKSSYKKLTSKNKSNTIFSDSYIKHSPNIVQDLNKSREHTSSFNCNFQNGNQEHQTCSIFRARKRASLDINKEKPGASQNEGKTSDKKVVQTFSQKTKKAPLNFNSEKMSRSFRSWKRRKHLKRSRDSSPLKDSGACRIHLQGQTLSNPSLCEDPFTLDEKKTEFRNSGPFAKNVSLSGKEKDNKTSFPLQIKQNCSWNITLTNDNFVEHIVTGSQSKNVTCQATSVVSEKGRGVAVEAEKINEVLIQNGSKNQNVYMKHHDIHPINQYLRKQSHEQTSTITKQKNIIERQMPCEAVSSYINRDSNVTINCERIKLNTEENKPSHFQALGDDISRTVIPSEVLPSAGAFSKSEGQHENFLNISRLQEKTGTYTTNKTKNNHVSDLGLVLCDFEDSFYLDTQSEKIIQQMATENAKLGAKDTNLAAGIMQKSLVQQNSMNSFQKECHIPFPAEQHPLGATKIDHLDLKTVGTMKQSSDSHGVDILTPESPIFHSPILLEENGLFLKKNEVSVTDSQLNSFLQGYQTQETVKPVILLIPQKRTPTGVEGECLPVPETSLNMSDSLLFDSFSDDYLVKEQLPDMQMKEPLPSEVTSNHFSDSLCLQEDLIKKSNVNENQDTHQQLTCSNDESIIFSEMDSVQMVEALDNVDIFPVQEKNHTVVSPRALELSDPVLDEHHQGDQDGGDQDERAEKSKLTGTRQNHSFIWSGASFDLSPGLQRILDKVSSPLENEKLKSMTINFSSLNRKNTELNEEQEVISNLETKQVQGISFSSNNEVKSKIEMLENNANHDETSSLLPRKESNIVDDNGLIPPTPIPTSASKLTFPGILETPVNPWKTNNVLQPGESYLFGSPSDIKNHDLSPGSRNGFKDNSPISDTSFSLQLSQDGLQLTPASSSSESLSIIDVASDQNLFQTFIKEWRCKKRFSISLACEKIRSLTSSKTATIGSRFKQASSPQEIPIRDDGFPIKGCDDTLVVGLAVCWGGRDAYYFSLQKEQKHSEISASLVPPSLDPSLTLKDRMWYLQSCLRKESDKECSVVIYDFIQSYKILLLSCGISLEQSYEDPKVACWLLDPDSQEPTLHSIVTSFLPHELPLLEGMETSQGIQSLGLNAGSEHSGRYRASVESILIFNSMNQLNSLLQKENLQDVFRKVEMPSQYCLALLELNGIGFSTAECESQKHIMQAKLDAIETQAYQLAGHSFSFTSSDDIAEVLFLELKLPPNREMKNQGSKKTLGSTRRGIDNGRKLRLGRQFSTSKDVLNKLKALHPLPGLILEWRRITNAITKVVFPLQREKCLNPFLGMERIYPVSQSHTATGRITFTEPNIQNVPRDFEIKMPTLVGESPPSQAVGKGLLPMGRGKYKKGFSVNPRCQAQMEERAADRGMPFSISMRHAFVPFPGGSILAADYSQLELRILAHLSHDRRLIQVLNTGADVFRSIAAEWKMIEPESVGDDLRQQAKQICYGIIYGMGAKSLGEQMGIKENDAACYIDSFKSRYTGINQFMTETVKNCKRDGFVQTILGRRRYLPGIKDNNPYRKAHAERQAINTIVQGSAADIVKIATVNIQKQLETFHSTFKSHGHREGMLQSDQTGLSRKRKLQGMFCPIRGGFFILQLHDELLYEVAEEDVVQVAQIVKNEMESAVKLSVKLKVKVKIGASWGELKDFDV
SMILES	remaining activity [%]
CC[C@@H](C(N)=O)N1CCCC1=O	99.5
CCC(=O)O[C@H]1CC[C@H]2[C@@H]3CCC4=CC(=O)CC[C@]4(C)[C@H]3CC[C@]12C	92.2
CNc1ccc2oc(C[C@H]3O[C@@]4(CC[C@H]3C)O[C@H]([C@H](C)C(=O)c3ccc[nH]3)[C@H](C)C[C@H]4C)nc2c1C(=O)O	97.8
CO[C@H]1CC=C2CCN3CCC4=C(CC(=O)OC4)[C@]23C1	101

Study 4 — organism: Cryptosporidium parvum; method: time-kill; cell line: HCT-8; strain: nanoluciferase-expressing; relative to: DMSO control
SMILES: CNC(=O)c1ccc(-c2cnn3ccc(C(=O)N(C)c4ccc(Cl)c(C(=O)OC)c4)cc23)cc1
conditions	luminescence remaining
0.00305 µM, 4 h	115% and 86.5%
20 µM, 8 h	86% and 89.2%
0.00305 µM, 0 h	107% and 102% and 85% and 111% and 135% and 87.2% and 96.3% and 119%
0.7407 µM, 8 h	101% and 102%
0.00102 µM, 4 h	109% and 98.9%
0.00914 µM, 0 h	105% and 101% and 92% and 94.1% and 85.9% and 117% and 103% and 102%
0.7407 µM, 0 h	85.3% and 97.9% and 93.1% and 106% and 102% and 94.5% and 113%
2.222 µM, 8 h	85.1% and 102%
6.667 µM, 4 h	94% and 106%
6.667 µM, 72 h	9.34% and 9.28%
0.2469 µM, 48 h	10.9% and 11.4%

Mixed results — tested at: 10 µM
CAMK2A: Calcium/calmodulin-dependent protein kinase type II subunit alpha (CAMK2A, Homo sapiens, UniProt Q9UQM7)
Chain of UniProt Q9UQM7 (whole entry, looked up): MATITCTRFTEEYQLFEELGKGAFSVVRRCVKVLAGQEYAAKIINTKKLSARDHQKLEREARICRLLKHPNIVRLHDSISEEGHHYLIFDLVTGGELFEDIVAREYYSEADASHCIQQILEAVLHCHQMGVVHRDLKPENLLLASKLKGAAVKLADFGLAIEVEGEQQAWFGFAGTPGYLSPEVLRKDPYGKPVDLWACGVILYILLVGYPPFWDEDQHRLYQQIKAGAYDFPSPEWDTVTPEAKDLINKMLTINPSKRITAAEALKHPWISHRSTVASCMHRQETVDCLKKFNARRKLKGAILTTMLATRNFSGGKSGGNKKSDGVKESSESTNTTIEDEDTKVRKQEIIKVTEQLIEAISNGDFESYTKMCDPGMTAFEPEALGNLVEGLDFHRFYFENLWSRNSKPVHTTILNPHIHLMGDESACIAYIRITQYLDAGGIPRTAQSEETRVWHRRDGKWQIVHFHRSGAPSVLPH
Structure (SMILES)	target	assay	inhibition
CC[C@H]1/C=C/C=C/C[C@@H](C)[C@H](O)[C@@](C)(O)C(=O)[C@@H](C)[C@H](O)[C@@H](C)C(=O)[C@@H](C)[C@H](O)[C@@H](C)/C=C/C(=O)O[C@@H]2[C@H](C)[C@H](CC1)O[C@]1(CC[C@H](C)[C@H](C[C@@H](C)O)O1)[C@H]2C	CAMK2A	enzyme activity, inhibitor	-41%
Cc1nc(Nc2ncc(C(=O)Nc3c(C)cccc3Cl)s2)cc(N2CCN(CCO)CC2)n1	Leukocyte tyrosine kinase receptor (LTK, Homo sapiens, UniProt P29376)		< 50%
N#C[C@H](O[C@@H]1O[C@H](CO[C@@H]2O[C@H](CO)[C@@H](O)[C@H](O)[C@H]2O)[C@@H](O)[C@H](O)[C@H]1O)c1ccccc1	CAMK2A	enzyme activity, inhibitor	25%
